# Measured values of several laboratories.
# Parts stem from different laboratories: compare values within a part only.

# Sample 1 — method: protein binding microarray; molecule type: double-stranded DNA, one strand shown; medium: in vitro; concentration: not given; baseline: not given; direction: higher = stronger binding
# Target: Histone acetyltransferase KAT6A, both winged helices, GST fusion (KAT6A, Homo sapiens, UniProt Q92794, residues 1-181)
# Setting: 8-mer, flanks averaged, mean of 2 arrays, mostly near background
# Residues (chain): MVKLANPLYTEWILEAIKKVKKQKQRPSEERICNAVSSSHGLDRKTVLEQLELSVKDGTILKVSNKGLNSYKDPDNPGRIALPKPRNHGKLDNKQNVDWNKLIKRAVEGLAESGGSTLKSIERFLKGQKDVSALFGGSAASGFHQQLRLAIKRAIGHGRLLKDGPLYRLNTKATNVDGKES
Sequence,E-score
TAATCACA,-0.13
AAAACAAG,-0.0375
ACAGCTGT,-0.154
CTGCCGCA,0.146
ACGGGTCA,0.169
ATTGGTAG,-0.184
CGACTGAA,0.125
CAATGATG,-0.13
CTCTCCGC,0.061
AGAGGATG,-0.282
GTGGCCAC,-0.0445

# Sample 2 — method: RNA Bind-n-Seq; molecule type: RNA; medium: in vitro; concentration: 365 nM; baseline: no-protein control; direction: higher = stronger binding
# Target: RNA binding protein fox-1 homolog 2, RRM domain, GST-SBP tag (RBFOX2, Homo sapiens, UniProt O43251-10, residues 100-194)
# Setting: natural RNA segment, single round, ends assumed
# Shared flanks, not repeated: GGGAGUUCUACAGUCCGACGAUC … UGGAAUUCUCGGGUGCCAA
# Residues (chain): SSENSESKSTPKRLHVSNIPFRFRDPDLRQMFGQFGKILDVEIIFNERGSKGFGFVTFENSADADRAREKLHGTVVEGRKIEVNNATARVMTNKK
Sequence,RBNS enrichment (R)
UUCCAGGGAUUACAUGGAGGAUCACCGAUGUCUUUUCUCAUGCCCACCAGAUAUCAAGUACUCAUGACUUGACUCCCAAAUGCGCCGUUACAGGGCUAAGUUAAAGCCAG,0.418
GUUUUUAAAACCCAGUCCACAAAAUAACCAAUCCUGGACAUGAAGAUUCUUUCCCAAUUCACAUCUAACCUCAUCUUCUUCACCAUUUGGCAAUGCCAUCAUCUCCUGCC,1.28
CACUGAGCCUUUCGCCCUGGAAGUUCUUGGCCCAGGGUCUUCAACUUGUUUGCACGACCACUUCCAGCUUGCUGCUUCCUUCAGUUCCCCAGGCUCCUCCUCCAAAUGCC,2.52
UAGAAGGGUCUGAUAUUAGGUUUAGUGCUCUGCUAGUGCAGUUGUUGAAUUCUUAAGAAUGUUUGAUGAAGGCAUAUUUUCACUUUGUACUGGCUCACCAAAAUUGCUGA,0.554
AGGUGCUAUGUUACUUACAAGUAUUAUUAACCUAUUGGCUUCCAUUGUAUAGUAGUUUAGUAACUAUGAAGACUGGUUUGUAAGGAAGGAAACGUUUACUACUAAGGUUA,0.511
GGGACAGACCAGCCCCAGCCGCUGGGCCAACUUCCAAUCAUUCCAGCUAGAAGAGCUUCCCCCUGACACCCUGUGACUGAGCCUGUGUCCUGUCUGCCUGCCCAGCCAUG,0.94
UUUCUUGUAUAAAUAGGAGUCAUGGGCGUUAGUUCUGUAGUAAUAACUUCCCAGCACCUGGACAUCUCUUCCAGAGUUAUCCCACUGGCUUGGUGUGUAUACAUUAGGGG,0.257
UUGCUUGAGUCCAGGAAUUUGAGACCAGCCUGGACAACACAGUGAGACCUCAUCUCUAUCAAAAAAUAAAAAUUAGCUAGAUGUGGUGGCAUGAGCCUGUGUUCCCAGCU,0.792

# Sample 3 — method: RNA Bind-n-Seq; molecule type: RNA; medium: in vitro; concentration: 200 nM; setting: whole 134-nt RNA, ends assumed; added: 150 mM KCl; baseline: input library; direction: higher = stronger binding
# Target: Fragile X messenger ribonucleoprotein 1, C-terminal low-complexity region (Fmr1, Mus musculus, UniProt P35922)
# Shared flanks, not repeated: GGGAGUUCUACAGUCCGACGAUC … UGGAAUUCUCGGGUGUCAAGG
Sequence,log2 enrichment
GCAGGAAGUAAAAACAAAUGGAAAUGCUUCGGAUAGUGGCAGGGGUGGGGGUUGCUAAGGAAAGGGUGGGAUGGGAGUGGGUAAAGAGUC,-0.305
GCAGGAAGUAAAAACAAAUGGAAAGGCUUCGGAUAGUGGCAGGGGUGGGGGUUGCUAAGGAAAGGGUGGGAUGGGAGUGGGUAAAGAGUU,-0.0333
AAGUCCUGUGCUACACAUCGUAUGUACCGAAUCAAAUUUAAACCCAAACCCCCAAAAAAGUAUUAUGUUACGCCGUUCGGAUCUGCACUU,-0.341
AAGUCCUGUGCUACACAUCGUAUGUACCGAAUCGGGAAAAGGAAAAGGAAAAGGGGAAAGUAUUAUGUUACGCCGUUCGGAUCUGCACUU,-0.342
CUGUGCUACACAUCGUAUGUACCGAAUCGGGGAAAGGGGAAAAAAAGGGGUUUUUUUGGGGAAAGUAUUAUGUUACGCCGUUCGGAUCUG,-0.204
UGGCCCUGGUGGCAUGCGGGGAGGUAGAGGUGGCCUCAUGGAUCGUGGUGGUCCCGGUGGAAUGUUCAGAGGUGGCCGUGGUGGAGACAG,0.218
GUCCUGUGCUACACAUCGUAUGUACCGAAUCGGGGUUUUUUGGUUUUUUGGUUUUUUGGAAAGUAUUAUGUUACGCCGUUCGGAUCUGCA,-0.627
CUGUGCUACACAUCGUAUGUACCGAAUCGGGUUUUUUUGGGUUUUUUUGGGUUUUUUUGGGAAAGUAUUAUGUUACGCCGUUCGGAUCUG,-0.738
UAGAUAUCCAUAGAAAAGAGAACUCUGGAGCUGCAGAGAAGCCUGUCACCAUCCAUGCCACCCCAGAGGGGACUUCUGAAGCAUGCCGCA,-0.744

# Other studies, line by line
Molecule,target,assay,test system,conditions,how to read,measurement,value
"PhoQ, residues 284 288 289 292 302 303 SSTLLI","PhoP, residues 12 14 15 18 19 NYFTV (Escherichia coli, UniProt P23836)","Sort-seq, refers to: YFP reporter",E. coli,"PhoQ-PhoP variant library, added: 10 µM Mg2+","baseline: high Mg2+ state, higher = stronger signaling",fold induction,10.9

# For quick reference, copied from above (sample 2):
Sequence,RBNS enrichment (R)
GUUUUUAAAACCCAGUCCACAAAAUAACCAAUCCUGGACAUGAAGAUUCUUUCCCAAUUCACAUCUAACCUCAUCUUCUUCACCAUUUGGCAAUGCCAUCAUCUCCUGCC,1.28
CACUGAGCCUUUCGCCCUGGAAGUUCUUGGCCCAGGGUCUUCAACUUGUUUGCACGACCACUUCCAGCUUGCUGCUUCCUUCAGUUCCCCAGGCUCCUCCUCCAAAUGCC,2.52
